# Experimental data of several laboratories.
# Compare with care: the assays were run in different laboratories. Numbers after ± are the reported error.
# AHR: Aryl hydrocarbon receptor (AHR, Homo sapiens, UniProt P35869)
# Sequence of UniProt P35869 (whole entry, looked up): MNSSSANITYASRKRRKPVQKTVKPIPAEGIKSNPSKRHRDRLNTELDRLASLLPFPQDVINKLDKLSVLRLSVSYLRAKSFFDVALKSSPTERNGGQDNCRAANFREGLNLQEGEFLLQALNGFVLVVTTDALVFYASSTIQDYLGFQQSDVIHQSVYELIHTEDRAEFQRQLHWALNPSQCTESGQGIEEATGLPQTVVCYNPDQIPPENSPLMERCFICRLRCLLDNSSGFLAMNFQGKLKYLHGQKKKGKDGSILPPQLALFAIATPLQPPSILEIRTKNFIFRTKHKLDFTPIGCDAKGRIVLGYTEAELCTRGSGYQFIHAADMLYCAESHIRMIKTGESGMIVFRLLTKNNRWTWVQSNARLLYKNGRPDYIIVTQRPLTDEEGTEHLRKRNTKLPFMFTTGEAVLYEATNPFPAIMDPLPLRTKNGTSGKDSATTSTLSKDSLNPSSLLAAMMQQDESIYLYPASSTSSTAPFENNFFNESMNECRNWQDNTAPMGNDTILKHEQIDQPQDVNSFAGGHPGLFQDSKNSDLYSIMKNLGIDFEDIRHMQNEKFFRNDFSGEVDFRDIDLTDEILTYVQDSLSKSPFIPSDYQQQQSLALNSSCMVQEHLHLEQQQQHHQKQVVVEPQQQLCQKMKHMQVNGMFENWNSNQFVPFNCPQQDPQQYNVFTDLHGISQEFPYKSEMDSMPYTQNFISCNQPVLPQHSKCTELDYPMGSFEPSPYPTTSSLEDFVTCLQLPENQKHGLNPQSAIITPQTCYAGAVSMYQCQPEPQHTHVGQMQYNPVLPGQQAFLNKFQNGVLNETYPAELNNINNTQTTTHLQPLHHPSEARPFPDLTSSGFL
# CYP3A4: Cytochrome P450 3A4 (CYP3A4, Homo sapiens, UniProt P08684)
# Sequence of UniProt P08684 (whole entry, looked up): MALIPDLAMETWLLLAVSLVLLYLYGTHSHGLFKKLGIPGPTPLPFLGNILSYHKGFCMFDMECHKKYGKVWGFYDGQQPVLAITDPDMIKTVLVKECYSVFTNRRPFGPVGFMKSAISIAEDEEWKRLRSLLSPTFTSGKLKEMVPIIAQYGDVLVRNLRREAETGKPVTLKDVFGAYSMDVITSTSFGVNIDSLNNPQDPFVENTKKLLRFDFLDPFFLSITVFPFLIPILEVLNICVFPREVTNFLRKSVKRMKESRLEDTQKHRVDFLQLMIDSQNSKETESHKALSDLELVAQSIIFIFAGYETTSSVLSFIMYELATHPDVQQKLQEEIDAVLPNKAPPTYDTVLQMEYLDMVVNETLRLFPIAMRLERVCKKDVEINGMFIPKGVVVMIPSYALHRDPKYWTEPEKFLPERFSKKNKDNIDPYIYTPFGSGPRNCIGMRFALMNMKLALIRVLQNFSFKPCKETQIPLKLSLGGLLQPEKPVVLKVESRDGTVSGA
# Sequence of UniProt O70423 (whole entry, looked up): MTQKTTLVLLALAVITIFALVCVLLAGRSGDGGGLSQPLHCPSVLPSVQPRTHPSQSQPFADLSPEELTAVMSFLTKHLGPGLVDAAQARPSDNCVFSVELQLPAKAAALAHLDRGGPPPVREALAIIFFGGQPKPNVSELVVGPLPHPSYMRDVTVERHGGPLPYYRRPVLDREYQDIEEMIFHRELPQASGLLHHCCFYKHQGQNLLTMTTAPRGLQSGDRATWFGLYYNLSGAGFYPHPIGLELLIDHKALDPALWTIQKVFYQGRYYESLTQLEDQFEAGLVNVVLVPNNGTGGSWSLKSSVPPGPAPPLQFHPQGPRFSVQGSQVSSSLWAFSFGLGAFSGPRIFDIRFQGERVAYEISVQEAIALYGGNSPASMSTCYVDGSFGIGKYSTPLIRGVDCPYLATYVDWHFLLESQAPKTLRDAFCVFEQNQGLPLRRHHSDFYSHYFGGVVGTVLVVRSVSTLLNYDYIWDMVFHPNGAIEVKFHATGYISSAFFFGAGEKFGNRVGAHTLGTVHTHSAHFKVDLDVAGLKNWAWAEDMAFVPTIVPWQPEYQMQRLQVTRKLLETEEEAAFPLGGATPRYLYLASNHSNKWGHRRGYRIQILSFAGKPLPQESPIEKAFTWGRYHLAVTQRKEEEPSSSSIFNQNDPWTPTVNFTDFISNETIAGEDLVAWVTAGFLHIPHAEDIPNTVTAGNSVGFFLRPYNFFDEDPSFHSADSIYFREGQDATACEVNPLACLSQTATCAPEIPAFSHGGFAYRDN
# Sequence of UniProt Q4U2R8 (whole entry, looked up): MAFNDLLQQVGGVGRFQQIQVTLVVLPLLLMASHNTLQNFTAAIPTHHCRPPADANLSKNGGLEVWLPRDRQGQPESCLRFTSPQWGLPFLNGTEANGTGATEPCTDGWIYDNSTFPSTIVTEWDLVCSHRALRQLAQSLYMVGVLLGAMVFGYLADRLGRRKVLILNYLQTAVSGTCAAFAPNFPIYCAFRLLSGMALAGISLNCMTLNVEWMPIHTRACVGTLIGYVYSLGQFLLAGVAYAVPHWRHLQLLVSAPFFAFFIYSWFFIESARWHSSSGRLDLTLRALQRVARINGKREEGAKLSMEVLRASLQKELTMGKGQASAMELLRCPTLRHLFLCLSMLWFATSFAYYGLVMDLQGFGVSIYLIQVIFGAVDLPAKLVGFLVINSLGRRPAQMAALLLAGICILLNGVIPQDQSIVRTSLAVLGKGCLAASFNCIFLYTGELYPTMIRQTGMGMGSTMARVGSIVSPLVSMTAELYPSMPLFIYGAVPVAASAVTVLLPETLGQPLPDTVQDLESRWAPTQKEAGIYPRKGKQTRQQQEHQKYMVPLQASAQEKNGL
# Sequence of UniProt P05177 (whole entry, looked up): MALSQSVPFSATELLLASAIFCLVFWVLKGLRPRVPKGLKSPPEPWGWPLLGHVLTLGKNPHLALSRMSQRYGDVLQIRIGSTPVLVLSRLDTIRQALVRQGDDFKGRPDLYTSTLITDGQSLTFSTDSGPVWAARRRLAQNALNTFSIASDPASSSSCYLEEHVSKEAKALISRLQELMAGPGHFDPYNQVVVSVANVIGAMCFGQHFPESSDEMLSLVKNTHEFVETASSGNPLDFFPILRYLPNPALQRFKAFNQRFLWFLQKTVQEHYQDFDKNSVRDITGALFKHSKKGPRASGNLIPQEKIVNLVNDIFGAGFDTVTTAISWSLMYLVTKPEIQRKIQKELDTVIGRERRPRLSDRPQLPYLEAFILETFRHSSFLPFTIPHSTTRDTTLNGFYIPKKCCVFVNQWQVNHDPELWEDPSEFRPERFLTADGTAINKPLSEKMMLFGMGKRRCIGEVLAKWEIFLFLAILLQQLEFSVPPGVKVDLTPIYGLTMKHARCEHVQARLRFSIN
# Sequence of UniProt P20813 (whole entry, looked up): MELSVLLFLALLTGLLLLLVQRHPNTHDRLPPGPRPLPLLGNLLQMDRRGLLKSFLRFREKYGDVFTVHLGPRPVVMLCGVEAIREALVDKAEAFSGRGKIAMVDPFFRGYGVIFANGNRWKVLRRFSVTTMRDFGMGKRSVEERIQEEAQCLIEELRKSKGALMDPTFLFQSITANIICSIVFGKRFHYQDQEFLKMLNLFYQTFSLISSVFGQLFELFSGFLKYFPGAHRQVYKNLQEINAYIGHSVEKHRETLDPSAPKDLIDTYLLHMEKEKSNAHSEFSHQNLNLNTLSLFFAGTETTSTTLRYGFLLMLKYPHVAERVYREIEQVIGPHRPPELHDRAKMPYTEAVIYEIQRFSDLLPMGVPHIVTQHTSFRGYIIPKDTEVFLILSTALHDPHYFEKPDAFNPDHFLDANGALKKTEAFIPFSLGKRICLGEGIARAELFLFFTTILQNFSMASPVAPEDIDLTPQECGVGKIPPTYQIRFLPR
# Sequence of UniProt Q9Y694 (whole entry, looked up): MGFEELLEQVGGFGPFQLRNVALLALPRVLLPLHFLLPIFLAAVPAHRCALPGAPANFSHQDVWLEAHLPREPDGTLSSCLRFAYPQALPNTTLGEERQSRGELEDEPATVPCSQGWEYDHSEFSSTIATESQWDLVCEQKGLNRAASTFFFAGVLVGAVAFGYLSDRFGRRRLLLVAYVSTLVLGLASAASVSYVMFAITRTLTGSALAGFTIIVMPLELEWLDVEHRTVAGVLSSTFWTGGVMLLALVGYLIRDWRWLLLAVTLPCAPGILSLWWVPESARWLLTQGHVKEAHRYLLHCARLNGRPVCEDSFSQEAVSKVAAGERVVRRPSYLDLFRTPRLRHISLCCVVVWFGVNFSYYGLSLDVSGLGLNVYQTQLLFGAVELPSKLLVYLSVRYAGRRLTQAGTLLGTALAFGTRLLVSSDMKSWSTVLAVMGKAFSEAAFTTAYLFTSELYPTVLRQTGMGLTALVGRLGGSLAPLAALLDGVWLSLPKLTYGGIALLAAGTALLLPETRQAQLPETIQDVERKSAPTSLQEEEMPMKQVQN
SMILES,target,assay,test system,setting,scale,measurement,value
NCc1cc2c(cc1F)C(=O)N(C1CCC(=O)NC1=O)C2 (centres unmarked),"Amine oxidase [copper-containing] 3 (Mus musculus, UniProt O70423)","substrate, LC-MS/MS",recombinant mouse enzyme,"10 µM, 4 h, pH 7.4",,concentration,2400 nM
Nc1c(CC(=O)O)cccc1C(=O)c1ccc(Br)cc1,OATP,,cynomolgus monkey hepatocytes,"37 °C, 10% monkey serum, together with: 200 µM rifamycin SV",,uptake clearance,7.1 µL/min/10⁶ cells
COC(=O)c1ccc(C(=O)c2c[nH]c3ccccc23)cc1,AHR,"reporter gene, agonist, XRE luciferase",HepG2,10 µM,relative to: ITE,activity at 10 µM,45%
CN1C2CCCC1CC(NC(=O)c1nn(C)c3ccccc13)C2 (centres unmarked),H+/organic cation antiporter,cell uptake,hCMEC/D3,,,intrinsic clearance,25.7 µL/min/mg protein
C[C@H](CCC(=O)NCC(=O)O)[C@H]1CC[C@H]2[C@@H]3[C@H](O)C[C@@H]4C[C@H](OS(=O)(=O)O)CC[C@]4(C)[C@H]3CC[C@]12C,"Solute carrier family 22 member 7 (SLC22A7, Homo sapiens, UniProt Q9Y694)",,HEK293 control cells,,,uptake velocity,19.4 ± 5.3 pmol/min/mg protein
O=c1[nH]c(=O)c(Cc2cccc(C(F)(F)F)c2)c([C@H]2CC[C@H](c3ccccc3)CC2)[nH]1,"Solute carrier family 22 member 6 (SLC22A6, Homo sapiens, UniProt Q4U2R8)","uptake, inhibitor",HEK cells expressing SLC22A6,together with: tenofovir,,IC50,> 1000 nM
Cn1c(=O)c2c(ncn2C)n(C)c1=O,"Cytochrome P450 1A2 (CYP1A2, Homo sapiens, UniProt P05177)",,"human, plasma","oral, 200 mg, day 1, alone, arithmetic mean",,half-life,5.04 h
C[S+](C)[O-],human HLA-A*24:02 peptide complex,nanoDSF,,"10% (v/v), pH 7.6, ramp 1.0 °C/min",,melting temperature,56.1 ± 0.1 °C
CC(C)C(=O)Oc1ccc(CO)cc1[C@H](CCN(C(C)C)C(C)C)c1ccccc1,H+/organic cation antiporter,cell uptake,hCMEC/D3,,,intrinsic clearance,83.3 µL/min/mg protein
CC[C@H]1[C@@H](O)[C@@H]2[C@H](CC[C@]3(C)[C@@H]([C@H](C)CCNC(=O)NS(=O)(=O)c4ccc(C(C)(C)C)cc4)CC[C@@H]23)[C@@]2(C)CC[C@@H](O)C[C@@H]12,CYP3A4,,"human, plasma","arithmetic mean, together with: fluconazole",,Tlast,120 h
N#C[C@H](C[C@@H]1CCCNC1=O)NC(=O)[C@H](CC1CC1)NC(=O)c1cc2cccc(Cl)c2[nH]1,CYP3A4,NADPH metabolic stability,,"2 µM, pH 7.4, 37 °C, 100 pmol/mL enzyme",,half-life,0.0148 h
C=C(F)C(=O)N1CCN(c2nc(OC[C@@H]3CCCN3C)nc3c2CCN(c2cccc4cccc(Cl)c24)C3)C[C@@H]1CC#N,CYP3A4,,"healthy volunteers, plasma","200 mg, alone, geometric mean",,AUC(0-t),1950 ng·h/mL
C=CC(=O)N1C[C@H](Nc2ncnc3[nH]ccc23)CC[C@@H]1C,CYP3A,substrate,human,"oral, single dose, together with: itraconazole multiple doses",,apparent oral clearance CL/F,97.3 L/h
CCCCNc1ccc(C(=O)OCCN(C)C)cc1,H+/organic cation antiporter,cell uptake,hCMEC/D3,,,intrinsic clearance,19.8 µL/min/mg protein
Cc1cc(Nc2ncnc3ccc(NC4=NC(C)(C)CO4)cc23)ccc1Oc1ccn2ncnc2c1,CYP3A4,,"human, plasma","oral, 300 mg, day 1, single dose alone",,"AUC(0-inf), geometric mean",3350 ng·h/mL
CC(C)=CCc1c(O)cc2c(c1O)C(=O)C[C@@H](c1ccc(O)cc1)O2,human CYP2D6,,,"1 µM, pH 7.4",,inhibition,< 10%
CCCCN1CCCC[C@H]1C(=O)Nc1c(C)cccc1C,H+/organic cation antiporter,cell uptake,hCMEC/D3,,,intrinsic clearance,6.6 µL/min/mg protein
COC(=O)c1cccc(C(=O)c2c[nH]c3cccc(Cl)c23)n1,AHR,"reporter gene, agonist, XRE luciferase",HepG2,10 µM,relative to: ITE,activity at 10 µM,35%
CCCNC(C)C(=O)Nc1c(C)csc1C(=O)OC (centres unmarked),H+/organic cation antiporter,cell uptake,hCMEC/D3,,,intrinsic clearance,3.9 µL/min/mg protein
CCCCC1=NC2(CCCC2)C(=O)N1Cc1ccc(-c2ccccc2S(=O)(=O)Nc2noc(C)c2C)c(COCC)c1,CYP3A4,substrate,"human male, plasma","oral, together with: itraconazole",relative to: with over without itraconazole,Cmax ratio,1.25
NC(=O)C1(N2CCCCC2)CCN(CCCC(=O)c2ccc(F)cc2)CC1,H+/organic cation antiporter,cell uptake,hCMEC/D3,,,intrinsic clearance,26.6 µL/min/mg protein
COC(=O)c1ccc(C(=O)c2c[nH]c3ccccc23)nc1,AHR,"reporter gene, agonist",HepG2,XRE-driven luciferase,relative to: ITE 10 µM,Emax,4%
C=CC(=O)N(C)CCOc1c(N)ncnc1-c1cc(F)cc(NC(=O)c2ccc(C3CC3)cc2F)c1C,"Cytochrome P450 2B6 (CYP2B6, Homo sapiens, UniProt P20813)",recombinant enzyme,potassium phosphate buffer,pH 7.4,,Vmax,0.11 min⁻¹
O=C1CC2(CCCC2)CC(=O)N1CCCCN1CCN(c2ncccn2)CC1,H+/organic cation antiporter,cell uptake,hCMEC/D3,,,intrinsic clearance,11.3 µL/min/mg protein
CCc1cc(/C(C)=N/OCc2ccc(C3CCCCC3)c(C(F)(F)F)c2)ccc1CN1CC(C(=O)O)C1,enzymes other than CYP2C9,in vitro reaction phenotyping,human liver microsomes,,,fraction metabolized,0.207
C[C@H]1CN(C2COC2)CCN1c1ccc(Nc2cc(-c3ccnc(N4CCn5c(cc6c5CC(C)(C)C6)C4=O)c3CO)cn(C)c2=O)nc1,human CYP2D6,,human liver microsomes,"1 µM, 60 min, pH 7.4, together with: quinidine 1 µM, NADPH",relative to: 0 min,remaining compound,56.9 ± 4.1%

# Some of these lines once more:
SMILES,target,assay,test system,setting,scale,measurement,value
CC[C@H]1[C@@H](O)[C@@H]2[C@H](CC[C@]3(C)[C@@H]([C@H](C)CCNC(=O)NS(=O)(=O)c4ccc(C(C)(C)C)cc4)CC[C@@H]23)[C@@]2(C)CC[C@@H](O)C[C@@H]12,CYP3A4,,"human, plasma","arithmetic mean, together with: fluconazole",,Tlast,120 h
C[C@H]1CN(C2COC2)CCN1c1ccc(Nc2cc(-c3ccnc(N4CCn5c(cc6c5CC(C)(C)C6)C4=O)c3CO)cn(C)c2=O)nc1,human CYP2D6,,human liver microsomes,"1 µM, 60 min, pH 7.4, together with: quinidine 1 µM, NADPH",relative to: 0 min,remaining compound,56.9 ± 4.1%
